Experimental data from different studies.
Compare with care: the assays were run in different laboratories. ± marks the error that the study gave. Where no end group is shown, it is not given here.
MAL12: Alpha-glucosidase MAL12 (MAL12, Saccharomyces cerevisiae S288c, UniProt P53341)
UniProt P53341, sequence (whole entry, looked up): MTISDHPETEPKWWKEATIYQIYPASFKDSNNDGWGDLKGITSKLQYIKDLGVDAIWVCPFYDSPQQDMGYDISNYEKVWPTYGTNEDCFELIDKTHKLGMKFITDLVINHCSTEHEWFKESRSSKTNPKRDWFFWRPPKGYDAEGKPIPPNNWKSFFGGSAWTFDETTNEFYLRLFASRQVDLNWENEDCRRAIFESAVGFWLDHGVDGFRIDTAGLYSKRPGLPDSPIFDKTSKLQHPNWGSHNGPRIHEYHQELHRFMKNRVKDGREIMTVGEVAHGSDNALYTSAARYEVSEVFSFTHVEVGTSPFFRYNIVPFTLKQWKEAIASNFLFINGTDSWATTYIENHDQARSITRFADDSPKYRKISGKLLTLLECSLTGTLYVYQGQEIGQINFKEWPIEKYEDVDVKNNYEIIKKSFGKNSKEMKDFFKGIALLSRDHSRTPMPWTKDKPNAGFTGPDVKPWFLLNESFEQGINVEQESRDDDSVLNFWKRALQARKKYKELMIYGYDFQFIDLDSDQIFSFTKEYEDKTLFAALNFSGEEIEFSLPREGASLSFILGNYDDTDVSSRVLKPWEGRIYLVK
WWOX WW1 domain: WW domain-containing oxidoreductase, WW1 domain (WWOX, Homo sapiens, UniProt Q9NZC7)
UniProt Q9NZC7, sequence (whole entry, unmodified, looked up): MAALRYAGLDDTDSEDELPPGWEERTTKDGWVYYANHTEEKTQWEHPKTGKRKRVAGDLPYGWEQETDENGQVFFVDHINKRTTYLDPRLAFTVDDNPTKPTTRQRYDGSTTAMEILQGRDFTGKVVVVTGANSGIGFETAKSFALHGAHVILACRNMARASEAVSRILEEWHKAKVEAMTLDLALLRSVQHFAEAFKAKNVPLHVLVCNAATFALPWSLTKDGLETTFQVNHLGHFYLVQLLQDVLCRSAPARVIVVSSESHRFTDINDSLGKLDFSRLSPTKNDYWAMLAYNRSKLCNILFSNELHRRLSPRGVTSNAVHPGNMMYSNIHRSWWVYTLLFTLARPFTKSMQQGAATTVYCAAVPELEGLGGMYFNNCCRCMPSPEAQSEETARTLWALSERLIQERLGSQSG
SCN9A: Sodium channel protein type 9 subunit alpha (SCN9A, Homo sapiens, UniProt Q15858)
UniProt Q15858, sequence (whole entry, looked up): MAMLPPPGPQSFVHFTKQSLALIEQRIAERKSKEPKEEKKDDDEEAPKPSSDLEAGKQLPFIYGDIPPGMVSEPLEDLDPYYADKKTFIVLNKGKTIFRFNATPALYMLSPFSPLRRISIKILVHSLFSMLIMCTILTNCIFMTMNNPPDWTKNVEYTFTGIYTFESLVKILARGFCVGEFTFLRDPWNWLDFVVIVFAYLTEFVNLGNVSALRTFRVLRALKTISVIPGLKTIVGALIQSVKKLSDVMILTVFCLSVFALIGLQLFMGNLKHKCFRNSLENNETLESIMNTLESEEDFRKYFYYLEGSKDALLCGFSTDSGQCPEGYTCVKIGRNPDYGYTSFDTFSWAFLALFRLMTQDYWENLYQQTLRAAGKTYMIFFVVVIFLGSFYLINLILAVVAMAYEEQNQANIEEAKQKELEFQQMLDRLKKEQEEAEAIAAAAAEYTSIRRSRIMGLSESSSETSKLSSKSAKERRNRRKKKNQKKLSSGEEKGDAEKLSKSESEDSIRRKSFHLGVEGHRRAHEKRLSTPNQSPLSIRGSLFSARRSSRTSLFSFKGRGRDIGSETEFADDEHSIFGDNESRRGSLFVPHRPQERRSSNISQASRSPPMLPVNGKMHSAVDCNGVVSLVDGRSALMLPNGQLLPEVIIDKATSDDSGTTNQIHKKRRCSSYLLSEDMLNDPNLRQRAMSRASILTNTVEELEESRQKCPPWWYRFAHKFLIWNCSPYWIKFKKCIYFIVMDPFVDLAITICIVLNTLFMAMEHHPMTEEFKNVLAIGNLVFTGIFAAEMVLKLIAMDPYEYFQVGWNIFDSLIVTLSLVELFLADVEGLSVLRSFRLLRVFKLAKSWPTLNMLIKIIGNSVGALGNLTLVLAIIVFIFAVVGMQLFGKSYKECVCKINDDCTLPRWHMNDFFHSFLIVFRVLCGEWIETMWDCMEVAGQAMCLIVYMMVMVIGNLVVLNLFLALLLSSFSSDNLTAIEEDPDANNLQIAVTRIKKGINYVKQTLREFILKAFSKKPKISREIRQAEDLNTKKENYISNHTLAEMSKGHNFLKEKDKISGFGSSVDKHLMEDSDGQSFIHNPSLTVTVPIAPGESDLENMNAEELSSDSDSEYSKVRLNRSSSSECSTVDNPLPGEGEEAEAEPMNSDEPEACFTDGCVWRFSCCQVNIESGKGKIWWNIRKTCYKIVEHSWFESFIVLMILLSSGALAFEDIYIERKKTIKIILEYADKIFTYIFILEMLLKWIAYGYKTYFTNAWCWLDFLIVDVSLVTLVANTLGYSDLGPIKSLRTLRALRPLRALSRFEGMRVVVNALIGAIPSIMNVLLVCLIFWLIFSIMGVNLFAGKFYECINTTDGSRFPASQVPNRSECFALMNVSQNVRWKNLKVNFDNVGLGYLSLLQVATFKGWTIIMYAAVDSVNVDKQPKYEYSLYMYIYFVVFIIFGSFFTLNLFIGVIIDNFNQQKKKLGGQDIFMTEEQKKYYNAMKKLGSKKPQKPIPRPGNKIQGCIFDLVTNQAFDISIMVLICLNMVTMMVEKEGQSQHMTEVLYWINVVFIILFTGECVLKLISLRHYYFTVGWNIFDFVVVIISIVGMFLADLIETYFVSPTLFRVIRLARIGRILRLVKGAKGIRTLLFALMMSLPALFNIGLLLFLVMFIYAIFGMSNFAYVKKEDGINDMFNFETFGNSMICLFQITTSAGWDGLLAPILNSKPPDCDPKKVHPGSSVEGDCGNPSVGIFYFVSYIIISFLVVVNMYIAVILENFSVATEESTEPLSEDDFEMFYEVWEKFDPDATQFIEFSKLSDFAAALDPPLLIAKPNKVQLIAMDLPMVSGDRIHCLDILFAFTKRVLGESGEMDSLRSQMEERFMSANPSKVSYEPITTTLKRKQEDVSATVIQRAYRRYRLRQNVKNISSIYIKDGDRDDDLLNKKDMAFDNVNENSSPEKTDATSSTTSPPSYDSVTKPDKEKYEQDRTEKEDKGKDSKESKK
T1: RNA repeat, r(CGG) repeat (Homo sapiens); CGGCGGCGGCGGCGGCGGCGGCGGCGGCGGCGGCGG
B1: disulfide; chain GLIHQYCQGYWRHVPPSPREAPGAPRSPEPDQKKPRNRRHHPPDT (disulfide (positions not given here))
UniProt Q96D96, sequence (whole entry, unmodified, looked up): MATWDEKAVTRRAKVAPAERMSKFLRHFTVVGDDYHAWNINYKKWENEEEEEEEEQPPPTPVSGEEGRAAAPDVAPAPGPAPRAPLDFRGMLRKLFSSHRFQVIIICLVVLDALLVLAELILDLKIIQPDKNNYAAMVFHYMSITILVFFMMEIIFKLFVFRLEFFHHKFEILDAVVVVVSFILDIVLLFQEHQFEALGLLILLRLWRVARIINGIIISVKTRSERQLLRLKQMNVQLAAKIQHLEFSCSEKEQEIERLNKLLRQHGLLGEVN
UniProt P18433, sequence (whole entry, looked up): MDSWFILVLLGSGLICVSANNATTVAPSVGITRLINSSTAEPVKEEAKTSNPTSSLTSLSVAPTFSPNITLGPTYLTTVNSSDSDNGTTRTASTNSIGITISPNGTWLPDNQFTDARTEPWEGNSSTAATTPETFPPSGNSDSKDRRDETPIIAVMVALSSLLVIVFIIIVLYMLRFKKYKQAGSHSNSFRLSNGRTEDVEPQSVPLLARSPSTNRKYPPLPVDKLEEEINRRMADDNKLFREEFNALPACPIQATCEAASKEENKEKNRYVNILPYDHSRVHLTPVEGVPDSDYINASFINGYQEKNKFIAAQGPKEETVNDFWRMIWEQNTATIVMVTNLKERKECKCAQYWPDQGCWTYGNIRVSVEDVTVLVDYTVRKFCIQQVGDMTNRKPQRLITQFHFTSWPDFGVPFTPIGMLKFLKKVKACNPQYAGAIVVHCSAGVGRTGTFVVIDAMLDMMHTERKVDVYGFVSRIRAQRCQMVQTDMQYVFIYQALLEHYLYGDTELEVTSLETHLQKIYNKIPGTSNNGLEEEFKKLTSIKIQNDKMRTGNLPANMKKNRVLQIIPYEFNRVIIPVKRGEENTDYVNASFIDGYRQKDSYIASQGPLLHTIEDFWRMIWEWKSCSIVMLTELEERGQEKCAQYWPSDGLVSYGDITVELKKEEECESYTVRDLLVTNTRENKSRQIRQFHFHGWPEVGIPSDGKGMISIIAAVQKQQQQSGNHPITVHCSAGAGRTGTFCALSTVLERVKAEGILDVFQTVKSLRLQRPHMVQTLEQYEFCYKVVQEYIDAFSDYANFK
UniProt Q01064, sequence (whole entry, looked up): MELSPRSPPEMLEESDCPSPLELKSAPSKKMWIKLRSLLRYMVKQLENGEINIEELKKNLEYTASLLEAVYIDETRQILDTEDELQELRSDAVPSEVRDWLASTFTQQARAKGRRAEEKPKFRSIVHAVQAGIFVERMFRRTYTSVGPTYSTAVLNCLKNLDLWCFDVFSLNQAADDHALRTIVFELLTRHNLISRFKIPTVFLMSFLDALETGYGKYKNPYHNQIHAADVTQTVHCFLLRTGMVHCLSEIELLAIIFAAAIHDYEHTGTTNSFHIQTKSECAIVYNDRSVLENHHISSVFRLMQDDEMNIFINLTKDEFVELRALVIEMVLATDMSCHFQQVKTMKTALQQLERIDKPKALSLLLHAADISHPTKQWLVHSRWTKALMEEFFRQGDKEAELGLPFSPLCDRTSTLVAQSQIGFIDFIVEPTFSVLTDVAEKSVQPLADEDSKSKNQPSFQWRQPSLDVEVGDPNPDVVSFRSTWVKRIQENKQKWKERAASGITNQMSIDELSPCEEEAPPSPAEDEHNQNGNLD
UniProt P14416, sequence (whole entry, looked up): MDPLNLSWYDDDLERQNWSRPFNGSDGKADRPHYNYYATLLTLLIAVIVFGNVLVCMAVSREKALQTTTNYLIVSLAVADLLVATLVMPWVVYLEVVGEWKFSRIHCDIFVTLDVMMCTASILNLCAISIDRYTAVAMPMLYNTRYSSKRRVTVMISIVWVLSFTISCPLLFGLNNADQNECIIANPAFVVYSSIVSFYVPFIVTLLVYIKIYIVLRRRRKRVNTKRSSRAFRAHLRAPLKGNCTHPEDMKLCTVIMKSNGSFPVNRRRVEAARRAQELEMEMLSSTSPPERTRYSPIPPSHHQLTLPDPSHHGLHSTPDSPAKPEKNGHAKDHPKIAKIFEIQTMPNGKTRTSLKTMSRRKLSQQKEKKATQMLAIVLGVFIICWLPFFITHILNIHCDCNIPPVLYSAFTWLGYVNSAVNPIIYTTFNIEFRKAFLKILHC

`COc1cc2oc(-c3ccccc3)cc(=O)c2c(OC)c1O` has an inhibition of 7.09% (MAL12; enzyme activity, inhibitor, absorbance; 25 µM).
For `Cc1[nH]c(N)nc1CCC(=O)c1cc(F)cc(F)c1`, “fast inhibition component” read “increased” (Voltage-gated hydrogen channel 1 (HVCN1, Homo sapiens, UniProt Q96D96, F150A); proton current, inside-out patch; 100 nM; baseline: wild type).
The inhibition of `COc1c(O)cc(O)c2c(=O)cc(-c3ccc(O)cc3)oc12` is reported as > 99% (MAL12; enzyme activity, inhibitor; 250 µM).
`B1` — result for “apparent molecular mass, dimer peak”: 80.2 ± 3 kDa (Neuropilin-2 (NRP2, Homo sapiens, UniProt O60462); sedimentation velocity AUC; 2.5-fold molar excess, 8 µM b1b2 domain).
The Ki of `C=C(C)CCOP(=O)(O)OP(=O)(O)O` is reported as 292 ± 39 µM (Isopentenyl-diphosphate delta-isomerase (fni, Streptococcus pneumoniae serotype 4, UniProt Q97SH8); substrate; pH 7.0, 37 °C, substrate inhibition, added: 8 µM FMN and NADPH).
`CC(=O)N[C@@H]1[C@@H](O)[C@H](O[C@@H]2O[C@H](CO)[C@@H](O[C@@H]3O[C@H](CO[C@H]4O[C@H](CO[C@H]5O[C@H](CO)[C@@H](O)[C@H](O)[C@@H]5O[C@H]5O[C@H](CO)[C@@H](O)[C@H](O)[C@@H]5O)[C@@H](O)[C@H](O[C@H]5O[C@H](CO)[C@@H](O)[C@H](O)[C@@H]5O[C@H]5O[C@H](CO)[C@@H](O)[C@H](O)[C@@H]5O)[C@@H]4O)[C@@H](O)[C@H](O[C@H]4O[C@H](CO)[C@@H](O)[C@H](O)[C@@H]4O[C@H]4O[C@H](CO)[C@@H](O)[C@H](O)[C@@H]4O[C@H]4O[C@H](CO)[C@@H](O)[C@H](O)[C@@H]4O)[C@@H]3O)[C@H](O)[C@H]2NC(C)=O)[C@@H](CO)O[C@H]1NC(=O)C[C@H](N)C(=O)O` has a fluorescence of 14800 RFU (NT1 (Nicotiana tabacum, UniProt Q94EW1); glycan binding, glycan array; added: Alexa 488-labelled lectin 150 µg/mL).
For `CN1CCN(c2ccc3[nH]c(-c4ccc5[nH]c(-c6cccc(OCCCC(=O)NCCCN=[N+]=[N-])c6)nc5c4)nc3c2)CC1`, the IC50 was 33 µM (T1, RNA repeat, r(CGG) repeat (Homo sapiens); DGCR8 displacement, competitor, TR-FRET; pH 7.5, 110 mM KCl, with yeast tRNA, added: DGCR8 protein).
`CC(C)C[C@H](NC(=O)[C@@H](NC(=O)[C@@H](N)[C@@H](C)O)C(C)C)C(=O)N[C@@H](C)C(=O)N1CCC[C@H]1C(=O)N1CCC[C@H]1C(=O)N1CCC[C@H]1C(=O)N[C@@H](Cc1ccc(O)cc1)C(=O)N[C@@H](CCCNC(=N)N)C(=O)N[C@@H](Cc1c[nH]cn1)C(=O)N[C@@H](CCCNC(=N)N)C(=O)N[C@@H](CC(N)=O)C(=O)O` — result for “entropy term TΔS”: 1.86 ± 0.52 kcal/mol (WWOX WW1 domain; binding to WW1 domain, isothermal titration calorimetry; pH 7.0, 25 °C).
`CCCCCCCCC(=O)NC1CCC1=O` (stereo not shown): IC50 “inactive” (N-acylethanolamine-hydrolyzing acid amidase (NAAA, Homo sapiens, UniProt Q02083); enzyme activity, inhibitor, fluorogenic PAMCA hydrolysis; pH 4.5, added: 5 µM PAMCA).
For `CNC(=O)[C@H]1O[C@@H](n2cnc3c(NCc4cccc(I)c4)ncnc32)[C@H](O)[C@@H]1O`, the Hill slope was -0.99 ± 0.07 (Adenosine receptor A3 (ADORA3, Homo sapiens, UniProt P0DMS8); [3H]PSB-11 displacement; CHO membranes; added: GTP 1 mM).
With `O=c1cc(-c2ccccc2)oc2cc(O)ccc12` the inhibition was < 1% (MAL12; enzyme activity, inhibitor; 50 µM).
`Nc1ncnc2c1ncn2[C@@H]1O[C@H](COP(=O)(O)OP(=O)(O)OP(=O)(O)O)[C@@H](O)[C@H]1O` — result for “decay time constant τ1”: 0.4 ± 0.2 s (P2X purinoceptor 7 (P2rx7, Rattus norvegicus, UniProt Q64663); ion current, whole-cell patch clamp; HEK293, transfected; added: after agonist washout, Ca2+ medium).
The ComD1 activation of `CC[C@H](C)[C@H](NC(=O)[C@H](CC(N)=O)NC(=O)[C@H](Cc1c[nH]cn1)NC(=O)[C@@H](NC(=O)[C@H](CCC(N)=O)NC(=O)[C@H](CCCNC(=N)N)NC(=O)[C@@H](NC(=O)[C@@H](N)CCC(=O)O)[C@@H](C)CC)[C@@H](C)O)C(=O)N[C@@H](Cc1ccccc1)C(=O)N[C@@H](Cc1ccccc1)C(=O)N[C@@H](CC(N)=O)C(=O)N[C@@H](Cc1ccccc1)C(=O)N[C@@H](Cc1ccccc1)C(=O)N[C@@H](CCCCN)C(=O)N[C@@H](CCCNC(=N)N)C(=O)N[C@@H](CCCNC(=N)N)C(=O)O` is reported as > 75% (histidine kinase ComD (Streptococcus pneumoniae serotype 2, UniProt A0A0H2ZM50); reporter gene, agonist; Streptococcus pneumoniae, D39 pcomX::lacZ; 10 µM; baseline: native CSP1).
The kcat of `O=[N+]([O-])c1ccc(OP(=O)(O)O)cc1` is reported as 0.54 ± 0.28 s⁻¹ (Receptor-type tyrosine-protein phosphatase alpha, residues 224–802 (Homo sapiens, UniProt P18433); substrate; pH 7.4).
For `COC(=O)c1scc(C)c1NC(=O)C(C)N1C(C)COCC1C` (stereo not shown), “capacity factor k′” read 5.8 (SCN9A; cell membrane chromatography; higher = stronger binding).
`CCN1C(=O)c2ccccc2[S+]([O-])c2ccc(C(=O)OCc3ccc(OC)cc3)cc21` (stereo not shown): AC50 “inactive” (D(2) dopamine receptor (DRD2, Homo sapiens, UniProt P14416); calcium mobilization, antagonist; HEK293 T-REx D2 Gqi5; up to 77 µM).
For `CC(=O)OCc1ccc(C=O)o1`, the peak modification was 23.8% (Hemoglobin subunit alpha, with beta chain (HBA1, Homo sapiens, UniProt P69905); refers to: haemoglobin A adduct; human normal whole blood; 2000 µM, 24 h, hematocrit 30%).
`CC(C)C[C@@H](N)[C@H](O)C(=O)N[C@H](C(=O)N[C@H](C(=O)N[C@@H](CC(=O)O)C(=O)O)C(C)C)C(C)C` has an ANG-(1-7) formation of 33.1 ± 2.9 pg/glomerulus (Glutamyl aminopeptidase (Enpep, Rattus norvegicus, UniProt P50123); inhibitor, MALDI-TOF MS; isolated rat glomeruli; 100 µM, 60 min, 37 °C, added: ANG-I 1 µM).
Under IC50, `COc1cc2c(cc1OC)-c1c/c(=N\c3c(C)cc(C)cc3C)n(C)c(=O)n1CC2` is recorded as “inactive” (Dual specificity calcium/calmodulin-dependent 3',5'-cyclic nucleotide phosphodiesterase 1B (Homo sapiens, UniProt Q01064); cAMP hydrolysis, inhibitor; up to 50 µM).
Under “capacity factor k′”, `CCCNC(C)C(=O)Nc1c(C)csc1C(=O)OC` (stereo not shown) is recorded as 33 (SCN9A; cell membrane chromatography; higher = stronger binding).
`COc1ccc(OCC2c3cc(OC)c(OC)cc3CCN2C(=O)c2cccc(Cl)c2)cc1` (stereo not shown): “channel opening frequency” 148 ± 17% (Glutamate receptor ionotropic, NMDA 2D, with NR1 (Rattus norvegicus, UniProt Q62645); outside-out patch clamp; 10 µM, added: GluN1 co-expressed; baseline: no compound).
Under “capacity factor k′”, `CCCN1CCN(C(C)C(=O)Nc2c(C)csc2C(=O)OC)CC1` (stereo not shown) is recorded as 6 (SCN9A; cell membrane chromatography; higher = stronger binding).
`CC(C)S[C@@H]1O[C@H](CO)[C@H](O)[C@H](O)[C@H]1O` gave a ΔG of -6.1 ± 0.1 kcal/mol (PA-I galactophilic lectin (lecA, Pseudomonas aeruginosa, UniProt Q05097); isothermal titration calorimetry; pH 7.5, 25 °C, added: 25 mM CaCl2).
Under “capacity factor k′”, `CCC(C(=O)Nc1c(C)csc1C(=O)OC)N1CCN(C(C)C)CC1` (stereo not shown) is recorded as 82.6 (SCN9A; cell membrane chromatography; higher = stronger binding).
`CC(=O)N[C@@H](Cc1c[nH]c2ccccc12)C(=O)N[C@H](Cc1ccccc1)C(=O)N[C@@H](CCCNC(=N)N)C(=O)N[C@@H](Cc1csc2ccccc12)C(N)=O`: “agonist and antagonist activity” “inactive” (Melanocortin receptor 3 (Mus musculus, UniProt P33033); receptor activity, agonist, cell-based; up to 100 µM, Schild antagonism analysis).
For `CCCNC(C)C(=O)Nc1c(C)csc1C(=O)OCC(C)C` (stereo not shown), “capacity factor k′” read 4.4 (SCN9A; cell membrane chromatography; higher = stronger binding).
`CQQEPDDLKQKACES`: “patients with IgE binding” 42% (human IgE; peptide microarray; peptide, peanut-allergic patient sera; concentration not given, 16 h, 4 °C).
The ΔG of `CC[C@H](C)[C@H](NC(=O)[C@@H]1CCCN1C(=O)[C@@H]1CCCN1C(=O)[C@@H]1CCCN1C(=O)[C@@H](NC(=O)[C@H](CC(N)=O)NC(=O)[C@@H](N)Cc1ccccc1)[C@@H](C)CC)C(=O)N[C@@H](Cc1ccc(O)cc1)C(=O)N[C@H](C(=O)N[C@@H](CO)C(=O)N[C@@H](CCCNC(=N)N)C(=O)N[C@@H](C)C(=O)O)[C@@H](C)O` is reported as -4.33 ± 0.11 kcal/mol (WW domain-containing oxidoreductase, WW2 domain Y85W (WWOX, Homo sapiens, UniProt Q9NZC7, Y85W); binding, ITC; pH 7.0, 25 °C).
Under IC50, `Clc1cccc(Nc2nnc(-c3ccccc3)c3ccccc23)c1` is recorded as “inactive” (Dual specificity calcium/calmodulin-dependent 3',5'-cyclic nucleotide phosphodiesterase 1C (PDE1C, Homo sapiens, UniProt Q14123); cGMP hydrolysis, inhibitor, fluorescence polarization; recombinant enzyme; up to 100 µM, 30 min preincubation, 30 °C, added: TAMRA-cGMP 25 nM).
Under “entropy term TΔS”, `CC(C)C[C@H](NC(=O)[C@@H](NC(=O)[C@@H](N)[C@@H](C)O)C(C)C)C(=O)N1CCC[C@H]1C(=O)N1CCC[C@H]1C(=O)N1CCC[C@H]1C(=O)N1CCC[C@H]1C(=O)N[C@@H](Cc1ccc(O)cc1)C(=O)N[C@@H](CCCNC(=N)N)C(=O)N[C@@H](Cc1c[nH]cn1)C(=O)N[C@@H](C)C(=O)N[C@@H](CC(N)=O)C(=O)O` is recorded as 0.52 ± 0.39 kcal/mol (WWOX WW1 domain; binding to WW1 domain, isothermal titration calorimetry; pH 7.0, 25 °C).
`CN(C)c1ccc(C(=NN=Cc2cc(Br)ccc2O)c2ccc(N(C)C)cc2)cc1` — result for activity: “inactive” (MAL12; enzyme activity, inhibitor; concentration not given, pH 6.8, 37 °C, added: p-nitrophenyl alpha-D-glucopyranoside).

A few entries again:
The kcat of `O=[N+]([O-])c1ccc(OP(=O)(O)O)cc1` is reported as 0.54 ± 0.28 s⁻¹ (Receptor-type tyrosine-protein phosphatase alpha, residues 224–802 (Homo sapiens, UniProt P18433); substrate; pH 7.4).
For `COC(=O)c1scc(C)c1NC(=O)C(C)N1C(C)COCC1C` (stereo not shown), “capacity factor k′” read 5.8 (SCN9A; cell membrane chromatography; higher = stronger binding).
